Measured values collected from several papers.
Every numbered part comes from another study and shows a few of its results, in no order. Changes are numbered by the printed parent chain.
Sequence of UniProt Q9XED8 (whole entry, looked up): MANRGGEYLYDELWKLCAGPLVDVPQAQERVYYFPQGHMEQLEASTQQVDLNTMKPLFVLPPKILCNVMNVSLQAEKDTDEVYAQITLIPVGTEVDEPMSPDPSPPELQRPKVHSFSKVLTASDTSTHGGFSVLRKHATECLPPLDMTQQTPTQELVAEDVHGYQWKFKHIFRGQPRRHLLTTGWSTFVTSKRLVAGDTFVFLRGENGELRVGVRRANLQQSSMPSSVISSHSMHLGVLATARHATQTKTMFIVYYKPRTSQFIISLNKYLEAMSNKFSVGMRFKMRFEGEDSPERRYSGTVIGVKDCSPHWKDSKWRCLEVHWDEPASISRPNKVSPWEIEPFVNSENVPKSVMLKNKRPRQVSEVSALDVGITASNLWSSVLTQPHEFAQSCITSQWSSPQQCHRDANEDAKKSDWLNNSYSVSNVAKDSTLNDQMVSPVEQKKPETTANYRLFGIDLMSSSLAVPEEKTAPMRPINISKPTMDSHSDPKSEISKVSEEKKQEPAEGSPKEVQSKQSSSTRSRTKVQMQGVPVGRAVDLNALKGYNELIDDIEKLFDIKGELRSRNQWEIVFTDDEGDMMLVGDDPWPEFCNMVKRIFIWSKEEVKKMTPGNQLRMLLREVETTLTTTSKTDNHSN
Sequence of UniProt Q38825 (whole entry, looked up): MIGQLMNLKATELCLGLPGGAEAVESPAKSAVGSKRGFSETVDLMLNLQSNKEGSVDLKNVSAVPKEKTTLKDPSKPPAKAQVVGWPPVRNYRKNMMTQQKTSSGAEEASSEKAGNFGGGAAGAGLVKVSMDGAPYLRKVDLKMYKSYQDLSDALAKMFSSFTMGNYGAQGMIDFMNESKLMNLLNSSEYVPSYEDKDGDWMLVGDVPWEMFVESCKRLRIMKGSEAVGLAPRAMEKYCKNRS
Sequence of UniProt Q9ZTX9 (whole entry, looked up): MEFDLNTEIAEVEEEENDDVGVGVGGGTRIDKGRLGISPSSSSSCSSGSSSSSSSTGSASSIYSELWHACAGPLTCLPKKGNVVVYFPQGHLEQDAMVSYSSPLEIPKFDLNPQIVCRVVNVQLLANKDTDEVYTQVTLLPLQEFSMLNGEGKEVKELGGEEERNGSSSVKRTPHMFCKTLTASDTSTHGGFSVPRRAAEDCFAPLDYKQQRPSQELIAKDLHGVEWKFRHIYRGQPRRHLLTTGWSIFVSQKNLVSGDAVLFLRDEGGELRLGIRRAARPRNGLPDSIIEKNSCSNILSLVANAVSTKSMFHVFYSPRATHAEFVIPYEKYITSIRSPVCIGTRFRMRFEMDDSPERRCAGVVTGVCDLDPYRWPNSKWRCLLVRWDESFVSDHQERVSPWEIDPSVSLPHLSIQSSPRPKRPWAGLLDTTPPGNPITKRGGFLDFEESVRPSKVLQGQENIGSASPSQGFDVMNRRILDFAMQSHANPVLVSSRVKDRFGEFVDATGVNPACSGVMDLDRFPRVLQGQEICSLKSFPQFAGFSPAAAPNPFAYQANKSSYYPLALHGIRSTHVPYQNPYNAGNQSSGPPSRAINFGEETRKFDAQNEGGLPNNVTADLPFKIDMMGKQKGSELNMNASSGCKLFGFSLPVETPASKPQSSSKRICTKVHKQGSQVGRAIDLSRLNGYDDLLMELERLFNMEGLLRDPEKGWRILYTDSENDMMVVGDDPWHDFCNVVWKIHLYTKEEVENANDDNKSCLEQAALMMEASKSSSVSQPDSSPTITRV
Sequence of UniProt P93830 (whole entry, looked up): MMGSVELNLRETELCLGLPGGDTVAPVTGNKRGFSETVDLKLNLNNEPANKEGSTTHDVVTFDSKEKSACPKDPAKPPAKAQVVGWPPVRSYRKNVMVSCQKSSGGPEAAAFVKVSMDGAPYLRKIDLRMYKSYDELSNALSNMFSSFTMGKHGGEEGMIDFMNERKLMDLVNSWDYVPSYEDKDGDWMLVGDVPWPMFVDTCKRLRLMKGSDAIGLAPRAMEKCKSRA
Sequence of UniProt Q38829 (whole entry, looked up): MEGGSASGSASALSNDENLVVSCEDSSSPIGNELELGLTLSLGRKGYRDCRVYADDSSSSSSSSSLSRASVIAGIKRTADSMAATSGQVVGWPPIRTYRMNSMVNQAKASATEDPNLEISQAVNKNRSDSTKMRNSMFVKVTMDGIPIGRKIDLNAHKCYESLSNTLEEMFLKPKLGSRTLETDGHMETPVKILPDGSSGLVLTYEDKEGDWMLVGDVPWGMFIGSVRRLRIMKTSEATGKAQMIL
Sequence of UniProt Q9FKM7 (whole entry, looked up): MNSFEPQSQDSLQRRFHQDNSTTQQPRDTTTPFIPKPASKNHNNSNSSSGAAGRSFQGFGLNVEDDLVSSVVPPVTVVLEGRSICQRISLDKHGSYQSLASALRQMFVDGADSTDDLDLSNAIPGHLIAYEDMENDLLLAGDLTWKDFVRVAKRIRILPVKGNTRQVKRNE

Set 1
Target: TAR DNA-binding protein 43, full length, His tag (TARDBP, Homo sapiens, UniProt Q13148, residues 1-414)
Technique: RNA Bind-n-Seq
Molecule type: RNA
Sample: in vitro
Tested at: 20 nM
Setting: 6-mer, flanks averaged, single round
With: 150 mM KCl
Reference: input library
Direction: higher = stronger binding
`CGCCUG` — result for “6-mer enrichment (R)”: 0.777.
Under “6-mer enrichment (R)”, `AGCAUU` is recorded as 0.593.
`UGCUGC`: “6-mer enrichment (R)” 0.809.
For `CUUAUC`, “6-mer enrichment (R)” read 0.545.
`GCCCCG`: “6-mer enrichment (R)” 0.781.
For `UCACGU`, “6-mer enrichment (R)” read 0.626.
For `CACCGC`, “6-mer enrichment (R)” read 0.718.
For `CCCGAA`, “6-mer enrichment (R)” read 0.681.

Set 2
Target: Max dimerization protein 1, bHLH-zipper, MAX partner unstated (MXD1, Homo sapiens, UniProt Q05195, residues 56-136)
Technique: protein-binding microarray
Molecule type: double-stranded DNA, one strand shown
Sample: in vitro
Tested at: not given
Setting: k-mer, scored over probes, only values ≥0.25
Direction: higher = stronger binding
Construct (chain): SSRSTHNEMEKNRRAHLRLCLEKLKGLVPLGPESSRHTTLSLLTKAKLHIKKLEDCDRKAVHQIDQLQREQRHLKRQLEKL
With `GCATGGCA` the E-score was 0.398.
`TGCCCCCA` has an E-score of 0.303.
With `GCATGGAA` the E-score was 0.414.
`CACTCCCC` has an E-score of 0.347.
The E-score of `AACATGAT` is reported as 0.273.
The E-score of `ACACATGA` is reported as 0.368.
The E-score of `CCTCGAGG` is reported as 0.318.
For `GCCCTCCC`, the E-score was 0.29.

Set 3
Sequence: B1 (IAA6)
Technique: two-hybrid
Reference: out of 4 tests
Direction: higher = firmer interaction
B1: IAA6 (Arabidopsis thaliana, UniProt Q38824); chain MAKEGLALEITELRLGLPGDNYSEISVCGSSKKKKRVLSDMMTSSALDTENENSVVSSVEDESLPVVKSQAVGWPPVCSYRRKKNNEEASKAIGYVKVSMDGVPYMRKIDLGSSNSYINLVTVLENLFGCLGIGVAKEGKKCEYIIIYEDKDRDWMLVGDVPWQMFKESCKRLRIVKRSDATGFGLQQD
The positive tests was 0 (ARF4 660-788 (Arabidopsis thaliana, UniProt Q9ZTX9)).
It gave 2 for positive tests (IAA17 (Arabidopsis thaliana, UniProt P93830)).
For ARF9 519-638 (Arabidopsis thaliana, UniProt Q9XED8); weak activation fusion: positive tests read 0.
It gave 0 for positive tests (IAA7 (Arabidopsis thaliana, UniProt Q38825)).
It gave 0 for positive tests (IAA11 (Arabidopsis thaliana, UniProt Q38829); weak activation fusion).
IAA33 (Arabidopsis thaliana, UniProt Q9FKM7) — positive tests: 1.

Other studies, line by line
Starting sequence: viral docking peptide; KGVKRKLFAEDSS
Under “normalised enrichment score”, `E10C` is recorded as 0.336 (CCND1, cyclin fold, Cln2 fusion (human); yeast growth competition, sequencing; yeast; strong parent motif; reference: not given, higher = stronger binding).

A few entries again (set 1):
Under “6-mer enrichment (R)”, `AGCAUU` is recorded as 0.593.
`GCCCCG`: “6-mer enrichment (R)” 0.781.
For `CACCGC`, “6-mer enrichment (R)” read 0.718.
`CGCCUG` — result for “6-mer enrichment (R)”: 0.777.
